Experimental data gathered from unrelated publications.
Numbered parts are unrelated; each lists some results of a single study. Positions count from the first letter of the parent shown.

Study 1 — technique: DHFR PCA, deep sequencing; matrix: yeast; with: (+)-ABA 0.11 µM; relative to: wild-type fitted maximum; direction: higher = stronger binding
Target: ABI1, truncated, D143A, DHFR fusion (Arabidopsis thaliana)
Notes: methotrexate growth selection, single substitutions
Starting sequence: PYL1, truncated, DHFR fusion (Arabidopsis thaliana); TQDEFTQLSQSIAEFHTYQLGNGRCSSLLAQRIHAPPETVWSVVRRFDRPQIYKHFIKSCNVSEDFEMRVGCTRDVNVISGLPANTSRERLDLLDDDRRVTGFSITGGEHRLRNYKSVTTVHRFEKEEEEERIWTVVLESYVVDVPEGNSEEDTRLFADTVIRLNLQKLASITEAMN; partner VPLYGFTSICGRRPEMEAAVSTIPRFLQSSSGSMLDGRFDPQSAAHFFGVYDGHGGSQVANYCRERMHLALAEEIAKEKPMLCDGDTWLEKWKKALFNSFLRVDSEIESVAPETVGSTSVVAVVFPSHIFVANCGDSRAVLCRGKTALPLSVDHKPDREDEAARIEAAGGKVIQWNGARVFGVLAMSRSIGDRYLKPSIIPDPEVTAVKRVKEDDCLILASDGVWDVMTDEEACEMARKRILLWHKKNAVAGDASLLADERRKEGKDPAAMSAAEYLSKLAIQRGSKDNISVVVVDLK
Substitution | relative binding score [%]
F56M | -7.03
L166D | 0.269
N85M | 64.7
V118Y | -0.786

Study 2 — technique: protein-binding microarray; molecule type: double-stranded DNA, one strand shown; matrix: in vitro; tested at: 2200 nM top; notes: 60-bp whole probe; with: salmon DNA 0.4 mg/ml; relative to: random background probes; direction: higher = stronger binding
Target: Interferon regulatory factor 7, full length, phosphomimetic (IRF7, Homo sapiens, UniProt Q92985, residues 1-503, S471D/S472D/S475D/S476D/S477D/S483D/S484D/S487D)
Sequence of UniProt Q92985 (whole entry, unmodified, looked up): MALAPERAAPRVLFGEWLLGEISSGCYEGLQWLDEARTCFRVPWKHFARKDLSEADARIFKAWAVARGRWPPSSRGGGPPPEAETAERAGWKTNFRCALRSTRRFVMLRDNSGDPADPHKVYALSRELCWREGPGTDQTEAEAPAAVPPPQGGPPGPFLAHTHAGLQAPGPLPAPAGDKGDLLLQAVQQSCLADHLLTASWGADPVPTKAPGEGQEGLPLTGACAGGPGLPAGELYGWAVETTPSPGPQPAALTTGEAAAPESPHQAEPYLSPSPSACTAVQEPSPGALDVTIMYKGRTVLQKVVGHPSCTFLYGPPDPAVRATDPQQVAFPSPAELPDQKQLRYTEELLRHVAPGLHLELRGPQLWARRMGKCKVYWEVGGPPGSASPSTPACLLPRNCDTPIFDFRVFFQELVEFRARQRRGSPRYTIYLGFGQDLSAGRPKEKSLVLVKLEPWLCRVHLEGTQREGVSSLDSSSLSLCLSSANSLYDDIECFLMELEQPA
Strand | fitted relative affinity [z-score]
GCCTAGCACGACGATTTCGGGTTTCGATACGTGCTAGTCTTGATTCGCTTGACGCTGCTG | 5.82
GCCTAGCACTCATCTTTCGTTACTTCACTGTGCTAGGTCTTGATTCGCTTGACGCTGCTG | 4.38
GCCTAGCACTTAGGTTTCTTTCTCCTTTAGTGCTAGGTCTTGATTCGCTTGACGCTGCTG | 2.62
GCCTAGCACGAAGGTTTCGGTTCCGGGACGTGCTAGGTCTTGATTCGCTTGACGCTGCTG | 10.8

Study 3 — technique: universal PBM; molecule type: double-stranded DNA, one strand shown; matrix: in vitro; tested at: 600 nM; direction: higher = stronger binding
Target: Sal-like protein 4, full length isoform A (SALL4, Homo sapiens, UniProt Q9UJQ4, residues 1-1053)
Sequence of UniProt Q9UJQ4 (whole entry, looked up): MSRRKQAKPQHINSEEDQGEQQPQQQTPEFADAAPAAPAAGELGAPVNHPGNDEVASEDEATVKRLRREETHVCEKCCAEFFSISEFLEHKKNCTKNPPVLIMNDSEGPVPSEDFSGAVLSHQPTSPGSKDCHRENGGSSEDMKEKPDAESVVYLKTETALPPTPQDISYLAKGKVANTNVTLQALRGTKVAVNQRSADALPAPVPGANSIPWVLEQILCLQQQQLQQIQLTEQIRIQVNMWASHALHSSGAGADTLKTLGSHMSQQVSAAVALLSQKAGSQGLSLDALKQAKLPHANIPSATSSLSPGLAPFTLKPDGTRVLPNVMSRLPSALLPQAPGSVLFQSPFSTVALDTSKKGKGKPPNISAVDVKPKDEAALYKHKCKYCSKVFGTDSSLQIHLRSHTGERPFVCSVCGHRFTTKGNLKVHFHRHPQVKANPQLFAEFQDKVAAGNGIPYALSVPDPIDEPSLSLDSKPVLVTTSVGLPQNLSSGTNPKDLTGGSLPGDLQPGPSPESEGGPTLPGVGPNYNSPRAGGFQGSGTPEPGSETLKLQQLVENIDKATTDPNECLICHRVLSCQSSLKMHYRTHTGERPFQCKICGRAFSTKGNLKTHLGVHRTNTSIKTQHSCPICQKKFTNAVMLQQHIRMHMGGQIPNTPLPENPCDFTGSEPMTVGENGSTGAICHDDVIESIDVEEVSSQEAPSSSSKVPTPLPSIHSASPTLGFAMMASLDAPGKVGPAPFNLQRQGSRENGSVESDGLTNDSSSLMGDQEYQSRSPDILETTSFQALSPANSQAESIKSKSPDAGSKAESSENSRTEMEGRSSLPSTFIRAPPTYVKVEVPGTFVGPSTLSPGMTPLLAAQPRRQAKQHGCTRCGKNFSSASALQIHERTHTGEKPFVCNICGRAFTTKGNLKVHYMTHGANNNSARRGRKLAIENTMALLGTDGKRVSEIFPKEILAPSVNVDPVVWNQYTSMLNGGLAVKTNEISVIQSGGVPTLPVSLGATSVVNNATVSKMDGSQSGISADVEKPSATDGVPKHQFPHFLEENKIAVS
Notes: 8-mer, flanks averaged, mean of replicates
Strand | E-score
ATTAGTCG | 0.0706
GCTATAGC | 0.0698
GGGGTCTA | -0.0856
CGTTGCAG | -0.146
TGTTATAA | 0.367
CCTAAGAA | 0.106
ACTTAGAA | -0.0124

Other studies, line by line
Molecule | target | test | system | conditions | how to read | endpoint | value
PhoQ, residues 284 288 289 292 302 303 SLKLQV | PhoP, residues 12 14 15 18 19 AWHSL (Escherichia coli, UniProt P23836) | Sort-seq, refers to: YFP reporter | E. coli | PhoQ-PhoP variant library, with: 10 µM Mg2+ | relative to: high Mg2+ state, higher = stronger signaling | fold induction | 9.21

Some of these lines once more (study 1):
Substitution | relative binding score [%]
L166D | 0.269
N85M | 64.7
